Measured values collected from several papers.
Each numbered part is a random draw from the data of one study; scales do not carry over between parts. Positions count from the first letter of the parent shown.

Series 1
Target: RNA binding protein fox-1 homolog 2, RRM domain, GST-SBP tag (RBFOX2, Homo sapiens, UniProt O43251-10, residues 100-194)
Method: RNA Bind-n-Seq
Molecule type: RNA
Sample: in vitro
Tested at: 365 nM
Notes: natural RNA segment, single round, ends assumed
Relative to: no-protein control
Reading: higher = stronger binding
Shared flanks, not repeated: GGGAGUUCUACAGUCCGACGAUC … UGGAAUUCUCGGGUGCCAA
Residues (chain): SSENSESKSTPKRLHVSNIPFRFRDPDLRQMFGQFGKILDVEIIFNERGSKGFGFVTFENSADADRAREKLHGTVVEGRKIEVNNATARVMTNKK
Strand | RBNS enrichment (R)
GGUUGACAUUUGAUGACAGGAAGCAAUCAUGACUCUUCAAGUGAGCUCACAGAAACCUUUCAUGUUGUCUGUUUCCAAAAUGGAUUCAAUAAACAACAUUUUGUCCAUGU | 0.309
CUUUAAUUCCCCCACAAAGAUUAUUAAUCACAUAUAUAGGGCCUUUUUGGUGUUGAAGGGAAUCAAACUACAUUUGCUGCUUGUGUGCGUGUGCAUUUGUGAACACGUAC | 0.785
ACAUGUCUGACGUCAAGCGGAUAUCAGCCACGUCCAUCUUCUUCGAGUCUAUGCCCUAUAAGCUCAACGCCAAAACUGGCCUCAUUGACUACAACCAGCUGGCACUGACU | 0.309
UUGUUAAAUGUAAGGAAAGCUUAAAUUCUUGUAUCUUUAAAAGAGAAAAUCUUAUUUAACCCUUUUGUGUUCUAGAUUUACUUACACACAUAGCCUAGAGCUCAGUUUUA | 0.339
UCGGGCUUAGCACCUGCCCUUCUCACCCAUGGCCCACCCAGGCCUGGAGCUGGGAUGCAAUGUAGGCUGAGGGAAAGACGUCAGGUUCCUUUAAUCACAGUCACUGUUUG | 0.713
CACAGCAACCCUAAUAGGUAUCUCCAUUUUACAUAGGUAAAAACUGAGGCUACAAACAAUCUAUGGUUCCAAAUCCUAUGUGCUUACUGCCGUCUUCUCUUAGAAGGGGA | 0.248
AGCAAGCUUAAAUUACAGAAGCAACUAUCCUGUCGAAAUGUCGUAAUACAGUCCAGCUGAAAGUAGGAAAUGACUGACCUGUAGGGUUAUAGGGUCCCUGAAUCACUGAU | 0.482
CCUCUGACACUCCUCAGAUGAACUGUUCUCAUCGGAAGCUUGCUGUCUUUUUACAAGAUGAGCUUUUACUCUCUUCCAGGAAGUAGCUUUUUUUCUAGCUGAGAAUUAAU | 0.254

Series 2
Target: ABI1, truncated, D143A, DHFR fusion (Arabidopsis thaliana)
Method: DHFR PCA, deep sequencing
Sample: yeast
Notes: methotrexate growth selection, single substitutions
Added: (+)-ABA 0 µM
Relative to: wild-type fitted maximum
Reading: higher = stronger binding
Starting sequence: PYL1, truncated, DHFR fusion (Arabidopsis thaliana); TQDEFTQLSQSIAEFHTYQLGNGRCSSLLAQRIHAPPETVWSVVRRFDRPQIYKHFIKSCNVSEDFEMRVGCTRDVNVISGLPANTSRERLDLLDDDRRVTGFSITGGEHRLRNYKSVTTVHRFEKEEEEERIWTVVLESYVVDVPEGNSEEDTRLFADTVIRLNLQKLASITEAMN
Change | relative binding score [%]
V70S | 4.25
V136P | -10.6
L28Q | -3.34
D92S | -0.505
E128Y | 11.1
T160Y | 16.7
E109S | 2.63
E14D | 10.6
K168I | -0.167
H55S | 4.5
Q10S | 37.5
S9R | 51.9
C72Y | 1.21
R46M | 2.17
I172M | 0.981

Series 3
Target: CCNF, cyclin fold, Cln2 fusion (human)
Method: yeast growth competition, sequencing
Sample: yeast
Notes: strong parent motif
Relative to: not given
Reading: higher = stronger binding
Starting sequence: PKN2 docking peptide (human); VSAVRKLDFSDTM
Change | normalised enrichment score
VSAHRKLDFSDTM [V4H] | 6.35
VSAVRKLDFLDTM [S10L] | 7.4
VSAVRKLDFKDTM [S10K] | 6.66
VSAYRKLDFSDTM [V4Y] | 6.9
VSAVRWLDFSDTM [K6W] | 6.78
VSAVRKLDFSITM [D11I] | 7.45
VSAVRKLDCSDTM [F9C] | 0.817
VSAVRKGDFSDTM [L7G] | -0.148
VSAVNKLDFSDTM [R5N] | 0.295
VSHVRKLDFSDTM [A3H] | 5.62
VSPVRKLDFSDTM [A3P] | 5.17
VSEVRKLDFSDTM [A3E] | 3.58
VSAVRKLDFSSTM [D11S] | 7.32
VSAVRKLNFSDTM [D8N] | 7.65
VSAVRKLDISDTM [F9I] | 3.95
VSAVRKLDKSDTM [F9K] | 0.314
VSAVRKNDFSDTM [L7N] | -0.00565
VSAVVKLDFSDTM [R5V] | 1.61
VSAVRKLDFHDTM [S10H] | 6.99
VSAVRKLDFQDTM [S10Q] | 7.18
VSWVRKLDFSDTM [A3W] | 5.45
VSAVRKLQFSDTM [D8Q] | 7.77

Series 4
Target: Interferon regulatory factor 7, full length, phosphomimetic (IRF7, Homo sapiens, UniProt Q92985, residues 1-503, S471D/S472D/S475D/S476D/S477D/S483D/S484D/S487D)
Sequence of UniProt Q92985 (whole entry, unmodified, looked up): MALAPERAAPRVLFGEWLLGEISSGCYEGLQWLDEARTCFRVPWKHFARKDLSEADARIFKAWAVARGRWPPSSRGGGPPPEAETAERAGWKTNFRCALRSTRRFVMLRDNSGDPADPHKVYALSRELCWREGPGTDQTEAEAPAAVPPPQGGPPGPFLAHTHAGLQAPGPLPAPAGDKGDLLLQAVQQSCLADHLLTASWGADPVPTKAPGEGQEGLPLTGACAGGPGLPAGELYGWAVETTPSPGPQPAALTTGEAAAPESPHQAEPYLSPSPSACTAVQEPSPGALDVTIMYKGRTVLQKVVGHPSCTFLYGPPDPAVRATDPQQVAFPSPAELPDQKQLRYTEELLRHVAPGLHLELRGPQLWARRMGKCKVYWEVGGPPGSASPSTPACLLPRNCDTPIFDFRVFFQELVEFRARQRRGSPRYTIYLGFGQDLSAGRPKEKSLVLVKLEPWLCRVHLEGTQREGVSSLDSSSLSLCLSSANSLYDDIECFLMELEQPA
Method: protein-binding microarray
Molecule type: double-stranded DNA, one strand shown
Sample: in vitro
Tested at: 2200 nM top
Notes: 60-bp whole probe
Added: salmon DNA 0.4 mg/ml
Relative to: random background probes
Reading: higher = stronger binding
Shared flanks, not repeated: GCCTAGCAC … GTCTTGATTCGCTTGACGCTGCTG
Strand | fitted relative affinity [z-score]
TTAGGTCTCGGTCTCGTTTAGTGCTAG | 0.957
TTAGGTATCCCACTGCTTTAGTGCTAG | 0.829
TCACTTTTCACTTTCTTACTGTGCTAG | 6.29
TCACTTCTGGATCTCAGACTGTGCTAG | 1.56
TCACTTTCACTTCTCCCACTGTGCTAG | 12.8
ATCCATCTCAAGTAGCCTAGCGTGCTA | 0.587
TACTATATGCATGTAAATAAGTGCTAG | 0.624
GAAGATTTCGATTACAAAAAGTGCTAG | 1.7
TGGGCTGTGGGTTTGAGTCTGTGCTAG | -0.991
GACCGTCTCGGTATCGGGACGTGCTAG | 0.14
TTAGATTTCAGACTGCATTAGTGCTAG | 0.266
TCAATGGTCCTGGTTTCAACTGTGCTA | 1.01
GCCTTTTTTTTTTTTTCTGAGTGCTAG | 1.6
GACGATTTCAGTATTGAGACGTGCTAG | 0.774
TTAGAACTGGGGCATCGATTAGTGCTA | -0.437
GACGAAATGGGGTTTCGAGACGTGCTA | 1.52
TTAGGTCTCGGAGTGGGTTAGTGCTAG | -0.296

Repeated from above (series 4):
Strand | fitted relative affinity [z-score]
TACTATATGCATGTAAATAAGTGCTAG | 0.624
GAAGATTTCGATTACAAAAAGTGCTAG | 1.7
TGGGCTGTGGGTTTGAGTCTGTGCTAG | -0.991
GACCGTCTCGGTATCGGGACGTGCTAG | 0.14
TTAGATTTCAGACTGCATTAGTGCTAG | 0.266
TCAATGGTCCTGGTTTCAACTGTGCTA | 1.01
GCCTTTTTTTTTTTTTCTGAGTGCTAG | 1.6
